Experimental data of several laboratories.
Each numbered part is a random draw from the data of one study; scales do not carry over between parts.

Sample 1 — technique: universal PBM; molecule type: double-stranded DNA, one strand shown; matrix: in vitro; tested at: not given; direction: higher = stronger binding
Target: Sal-like protein 4, full length isoform B (SALL4, Homo sapiens, UniProt Q9UJQ4-2, residues 1-616)
Setting: 8-mer, flanks averaged, mean of replicates
| Strand | E-score |
| --- | --- |
| AGAGCCAT | -0.075 |
| TCGGTCAA | -0.0799 |
| ACGCCGCC | -0.353 |
| CAATCGGG | -0.233 |

Sample 2 — technique: aptamer microarray, sandwich; molecule type: DNA with 2'F-ANA; matrix: in vitro; tested at: 200 nM; with: Cy3 exosite-II aptamer, 400 nM; direction: higher = stronger binding
Target: Prothrombin, mature alpha-thrombin (F2, Homo sapiens, UniProt P00734)
Setting: whole 15-mer aptamer, many near background
| Strand | mean fluorescence intensity |
| --- | --- |
| GGTTGGTGTGGTTGG (2'F-ANA at 3 6 9 11 12 13 15) | 787 a.u. |
| GGTTGGTGTGGTTGG (2'F-ANA at 1 4 5 8 10 12 13 14 15) | 55.4 a.u. |
| GGTTGGTGTGGTTGG (2'F-ANA at 4 5 8 9 14 15) | 45.7 a.u. |
| GGTTGGTGTGGTTGG (2'F-ANA at 1 4 7 8 9 10 11 13) | 48.1 a.u. |

Single results of other studies
| Molecule | tested on | test | test system | setting | scale | measurement | value |
| --- | --- | --- | --- | --- | --- | --- | --- |
| PhoQ, residues 284 288 289 292 302 303 AGHLVA | PhoP, residues 12 14 15 18 19 NFCKL (Escherichia coli, UniProt P23836) | Sort-seq, item: YFP reporter | E. coli | PhoQ-PhoP variant library, with: 10 µM Mg2+ | relative to: high Mg2+ state, higher = stronger signaling | fold induction | 1.03 |
| NAP1L1 (Homo sapiens, UniProt P55209) | NAP1L4 (Homo sapiens, UniProt Q99733) | cross-linking MS | – | hits only | – | interaction screen | cross-linked |

Excerpt of the above (sample 2):
| Strand | mean fluorescence intensity |
| --- | --- |
| GGTTGGTGTGGTTGG (2'F-ANA at 1 4 7 8 9 10 11 13) | 48.1 a.u. |
